Measurements collected from several papers.
Each numbered part is a random draw from the data of one study; scales do not carry over between parts. Positions count from the first letter of the parent shown.

Study 1
Target: RING finger protein unkempt homolog, zinc fingers 1-6, GST-SBP tag (UNK, Homo sapiens, UniProt Q9C0B0, residues 30-357)
UniProt Q9C0B0, sequence (30-357, looked up): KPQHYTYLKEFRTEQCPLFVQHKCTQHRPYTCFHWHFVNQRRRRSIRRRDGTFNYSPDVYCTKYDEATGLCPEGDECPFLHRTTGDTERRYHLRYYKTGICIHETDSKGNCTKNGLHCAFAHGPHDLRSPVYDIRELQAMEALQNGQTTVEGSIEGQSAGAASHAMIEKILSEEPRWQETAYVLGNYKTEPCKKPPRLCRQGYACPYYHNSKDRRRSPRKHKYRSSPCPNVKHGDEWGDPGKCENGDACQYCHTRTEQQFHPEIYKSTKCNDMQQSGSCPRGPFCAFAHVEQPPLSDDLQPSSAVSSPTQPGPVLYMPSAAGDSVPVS
Method: RNA Bind-n-Seq
Molecule type: RNA
Sample: in vitro
Tested at: not given
Setting: RNA with constant flanks, ends assumed
Relative to: input RNA pool
Direction: higher = stronger binding
Constant ends, left off below: GGGAGUUCUACAGUCCGACGAUC … CAACAGAGGAUUGAGCAUCA
With `UAAUAUUUUUGUGAACUGGUGUAAAUUGUUAAUGCAUAUAAGCUUGUGUAUUUUUGUAAACCGUUUUGUGAUUUAUUUCUUGCCCCAUAUGUAAAUAUUUAGAGUCUCAUUUCUUGCAAA` the bound/input enrichment was 0.573 ratio.
For `UAUACUUUGCUGAUCAACAUUCUUCAUAGUGAAGAUCUUGGAAAGGAUGUUGAAUUUGAAGCCGUUGGUGACAGCCCUGAAAAAGUGGGGCCAAAACAAGCUGAAGAUGCUGCCAAAAGC`, the bound/input enrichment was 0.203 ratio.
For `GGAUGCCACCAAAGCCUCCCAUUUGCUAUAGUUUUAUUUCAUGCACUGGAAACUGAGCAUUUAUCGCCGAGUACCGCCAAGCUUUCACUCCAGUGCCGUUUGGCAAUGCAAUUUUUUUUA`, the bound/input enrichment was 1.44 ratio.
With `UACUGCUUUCAACUUAAAUCACUGAGGCAUUUUUACUACUAUUCUGUUAAAAUCAGGAUUUCCGUGCUUGCCACCACCAGAUGAGAAGUUAAGCAGCCUUUCUGUGGAGAGUGAGAAUAA` the bound/input enrichment was 0.127 ratio.
`CCAAAUGUUCAGAAGUUGAAAUGGAUUGUUUCUGGGCGUACUGCACGGCAAUUGAAGCACCGCUACUACAGAAUAACUCACCUUCCAACAAUUCCUGAAAUGGUCCCUUAACUGGAUUAU` gave a bound/input enrichment of 0.107 ratio.
`UUGAAUGAUUUUGGCUUCAUGAUCUUUCACUCACCAUAUUGUAAACUGGUUCAGAAAUCUCCCGCUCGGAUGUUGCUGAAUGACUUCCUUAAUGACCAGAAUAGAGAUAAAAAUAGUAUC` gave a bound/input enrichment of 6.24 ratio.

Study 2
Target: RNA binding protein fox-1 homolog 2, RRM domain, GST-SBP tag (RBFOX2, Homo sapiens, UniProt O43251-10, residues 100-194)
Method: RNA Bind-n-Seq
Molecule type: RNA
Sample: in vitro
Tested at: 365 nM
Setting: natural RNA segment, single round, ends assumed
Relative to: no-protein control
Direction: higher = stronger binding
Constant ends, left off below: GGGAGUUCUACAGUCCGACGAUC … UGGAAUUCUCGGGUGCCAA
Target sequence (chain): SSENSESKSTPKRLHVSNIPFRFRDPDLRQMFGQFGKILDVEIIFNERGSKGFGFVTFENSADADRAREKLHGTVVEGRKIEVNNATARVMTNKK
`GAGCACCCCGAGUUGGCAGUCCUCGCAGACUCGGUUGACCUUCAGGAGUCCACAGGGAUAGCUUCCGACAGCUCCAGCGACUCUUCCAGCUCCUCCAGCUCCAGUUCGUC` — result for “RBNS enrichment (R)”: 0.279.
Under “RBNS enrichment (R)”, `CACCAGCAGCUCUUGGGAAGGACUUGCUGGGAGGCUGAGAGAGGCUUUGGGCACAGCCUGCUGUCUUUUCCAUUUCCUAAAGUUUACUUCAUUGUCUUGAGGCUUCCAGG` is recorded as 0.539.
For `UUUACUGGCUUUCAUACUUAGCAUUCCAGUGAAAUGUUCUUAGACUCACCAGUGGACAAAUAAUAAGGCCUUUUUUUAUUAUUAUUUCUUGUCUUUUUUGAUCUAAUUUA`, “RBNS enrichment (R)” read 0.881.
`UUUGUUUCAAUCUCUGACUAAAAAUACUUAAAUUUGGUUUGUUAAUUCUUAUUUUAGAAAUUAUAAUUUUAGUUUAUAUUAAUUUCGGUUAUAGCUUACUGAAGAAAUCU`: “RBNS enrichment (R)” 1.26.
`GACUUUAAGGCAGGCAACACUGGACCAUAGUGGUGCAGGCCUUCUAUUGAGGCCAGAGGAGCAAGUGUGCUUCUUCCUUGUCCUUGUCCCAUCAUUGAGACCUUCAUCUA` — result for “RBNS enrichment (R)”: 0.223.
`GUGAGUUCUCUCCUGACAGCUGUGAGCUCAGCUGGUGUGGGUGAGCCUUUCCUGCAGGAAGAGCCUCCCAAGGGAUGGCCAAAGAAGAGCAGGAUAGGCAAAGCUGUGGA` — result for “RBNS enrichment (R)”: 0.357.
For `GUCACUCAAAAAUACCAGGUUUCCUGAAUAUGUUAUUAAGAAUUUCAGAUAUCCAAGCAGAAUUUUAUUAUGGACACCUUGUAAUGAAUUCAAAUCGUGUGACAGCAAAC`, “RBNS enrichment (R)” read 0.43.
For `CUACUGCAGAAGUGCAGGGCACCAGUAAACACCAUGUAUUAUUGAAGAUGAAUCUGUUUGUAUGUAUCCUUGUCAAAUAUAUUCUAUAAUGAAAUAAAAUCUGAAAAGUG`, “RBNS enrichment (R)” read 0.443.
`AGGGGACGGCUUUGGGGGUCCCACGAGACAUGGACUAGGAGUUUAAGCAGGACAGUGUGCGUGCACGAGCUCCGAGCCCAGCACAGACAUGCCUGGAACCCCCGCCGCCU`: “RBNS enrichment (R)” 0.394.
Under “RBNS enrichment (R)”, `CAUAAUAGCAUCUGUAAAAGUACAUCUUACACAUUAUAUAGAGGGUUCUUGUUUGAAAUUUUCAGUUCUCUUUAUCUUCCCAGUACCUCUUGGUCCUCAUAAUGGGCAAA` is recorded as 0.605.
For `ACCUAGAAGACACCAUAAUCAGUUUAUUUACAACAACCACAUCAUCAGUUGCUUUUGUCGAACAUCAGCAUCAUGUUUUAAAUGUUGUGGUCCUGGAUGCCCAGCUGGGC`, “RBNS enrichment (R)” read 0.275.
`GUGUUCCUCCUCCCUCUAUUACUGUUUCACCAGAGCUGUCUUAGCUCAAAUCUGUUGUGUUUCUGAGUCUAGGGUCUGUACACUUGUUUAUAAUAAAUGCAAUCGUUUGG`: “RBNS enrichment (R)” 0.377.

Study 3
Target: CCNB1, cyclin fold, Cln2 fusion (human)
Method: yeast growth competition, sequencing
Sample: yeast
Setting: weak parent motif
Relative to: not given
Direction: higher = stronger binding
Starting sequence: CDKN1A docking peptide (human); SKACRRLFGPVDS
`SKACRRLFGWVDS [P10W]` — result for “normalised enrichment score”: 0.352.
Under “normalised enrichment score”, `SKACARAFGPVDS [R5A L7A]` is recorded as 0.149.
For `SKACRLLFGPVDS [R6L]`, “normalised enrichment score” read 0.0673.
For `SKGCRRLFGPVDS [A3G]`, “normalised enrichment score” read 0.126.
`SKACRRLFGLVDS [P10L]`: “normalised enrichment score” 0.629.
For `SKACRRLFGPVVS [D12V]`, “normalised enrichment score” read 0.144.
For `SKACRRLFDPVDS [G9D]`, “normalised enrichment score” read 0.237.
`SKACRRLKGPVDS [F8K]` — result for “normalised enrichment score”: 0.397.
For `SKACRRLFGPVAS [D12A]`, “normalised enrichment score” read 0.233.
`SKACRRRFGPVDS [L7R]`: “normalised enrichment score” 0.363.
For `SKAHRRLFGPVDS [C4H]`, “normalised enrichment score” read 0.783.
For `SKACRRLYGPVDS [F8Y]`, “normalised enrichment score” read -0.159.
For `SKACRRLFGPRDS [V11R]`, “normalised enrichment score” read 0.655.
`SKACRRLFGPWDS [V11W]` — result for “normalised enrichment score”: 0.293.
Under “normalised enrichment score”, `SKACRRNFGPVDS [L7N]` is recorded as 0.143.
For `SKACRRLFGIVDS [P10I]`, “normalised enrichment score” read 0.188.
`SKACRGLFGPVDS [R6G]` — result for “normalised enrichment score”: -0.147.
Under “normalised enrichment score”, `SKACRRLFGPFDS [V11F]` is recorded as 0.0509.
`SHACRRLFGPVDS [K2H]` — result for “normalised enrichment score”: 0.31.
Under “normalised enrichment score”, `SKACRRLFGFVDS [P10F]` is recorded as 0.0621.
For `SGACRRLFGPVDS [K2G]`, “normalised enrichment score” read 0.569.
`SKACTRLFGPVDS [R5T]`: “normalised enrichment score” -0.0866.
`SKHCRRLFGPVDS [A3H]` — result for “normalised enrichment score”: 0.179.
For `SKACRPLFGPVDS [R6P]`, “normalised enrichment score” read -0.263.
`SKACRRLFGKVDS [P10K]` — result for “normalised enrichment score”: 0.367.

Study 4
Target: ABI1, truncated, D143A, DHFR fusion (Arabidopsis thaliana)
Method: DHFR PCA, deep sequencing
Sample: yeast
Setting: methotrexate growth selection, single substitutions
Added: (+)-ABA 710 µM
Relative to: wild-type fitted maximum
Direction: higher = stronger binding
Starting sequence: PYL1, truncated, DHFR fusion (Arabidopsis thaliana); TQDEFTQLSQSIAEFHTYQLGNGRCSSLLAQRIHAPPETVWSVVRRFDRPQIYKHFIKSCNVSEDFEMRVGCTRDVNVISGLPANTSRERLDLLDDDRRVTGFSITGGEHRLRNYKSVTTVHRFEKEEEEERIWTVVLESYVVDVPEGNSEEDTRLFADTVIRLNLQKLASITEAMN; partner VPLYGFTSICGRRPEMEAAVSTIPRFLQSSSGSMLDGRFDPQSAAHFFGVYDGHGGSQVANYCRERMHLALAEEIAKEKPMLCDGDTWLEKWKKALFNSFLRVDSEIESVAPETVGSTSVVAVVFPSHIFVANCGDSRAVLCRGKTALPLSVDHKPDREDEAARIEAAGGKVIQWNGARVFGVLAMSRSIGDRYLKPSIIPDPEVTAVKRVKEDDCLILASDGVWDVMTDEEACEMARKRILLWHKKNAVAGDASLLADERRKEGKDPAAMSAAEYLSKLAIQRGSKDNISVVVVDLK
`G107V` — result for “relative binding score”: 39.5%.
`T39H` — result for “relative binding score”: 105%.
Under “relative binding score”, `E152T` is recorded as 99.6%.
For `D95T`, “relative binding score” read 42.4%.
`I52E` — result for “relative binding score”: 105%.
Under “relative binding score”, `S150K` is recorded as 88.5%.
For `V40C`, “relative binding score” read 78.4%.
`V161F` — result for “relative binding score”: 95.6%.
`R123G`: “relative binding score” 105%.
For `E38K`, “relative binding score” read 91%.
For `E64G`, “relative binding score” read 105%.
`V62K`: “relative binding score” 77%.
Under “relative binding score”, `E139F` is recorded as 53.1%.
`A13R`: “relative binding score” 99.3%.
`W41I` — result for “relative binding score”: -22.9%.
For `V62I`, “relative binding score” read 95.2%.
`D95C`: “relative binding score” 102%.
`G71W` — result for “relative binding score”: 46.1%.
`V43C`: “relative binding score” 91.1%.
`F157L` — result for “relative binding score”: 93.9%.

Study 5
Target: MAFK, bZIP domain (human)
Method: DHFR protein complementation
Sample: yeast
Setting: single substitutions, most at no-binding floor
Relative to: wild-type JUN-FOS pair
Direction: higher = stronger binding
Starting sequence: JUN, bZIP domain (human); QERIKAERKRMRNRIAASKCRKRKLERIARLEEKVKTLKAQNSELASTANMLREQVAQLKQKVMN; partner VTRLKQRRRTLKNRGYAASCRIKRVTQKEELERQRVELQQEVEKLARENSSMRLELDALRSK
For `T48Q`, the binding fitness was -1.51 natural log.
`A29C` gave a binding fitness of -1.5 natural log.
For `S43P`, the binding fitness was -1.52 natural log.
`K34M` gave a binding fitness of -1.57 natural log.
`A40F` gave a binding fitness of -1.59 natural log.
The binding fitness of `A40W` is reported as -1.49 natural log.
The binding fitness of `T37M` is reported as -1.45 natural log.
For `E33G`, the binding fitness was -1.44 natural log.
With `S47L` the binding fitness was -1.45 natural log.
`E33L` has a binding fitness of -1.42 natural log.
With `A40G` the binding fitness was -1.48 natural log.
For `S43A`, the binding fitness was -1.36 natural log.
For `Q55N`, the binding fitness was -1.49 natural log.
With `R30W` the binding fitness was -1.5 natural log.
`E44Y` has a binding fitness of -1.53 natural log.
`E33D` has a binding fitness of -1.38 natural log.
`Q55V` gave a binding fitness of -1.51 natural log.

Some of these lines once more (study 4):
`I52E` — result for “relative binding score”: 105%.
Under “relative binding score”, `S150K` is recorded as 88.5%.
For `V40C`, “relative binding score” read 78.4%.
`V161F` — result for “relative binding score”: 95.6%.
`R123G`: “relative binding score” 105%.
For `E38K`, “relative binding score” read 91%.
For `E64G`, “relative binding score” read 105%.
`V62K`: “relative binding score” 77%.
Under “relative binding score”, `E139F` is recorded as 53.1%.
